{"data": "Measurements gathered from unrelated publications", "note": "Parts stem from different laboratories: compare values within a part only. Several values in a cell are separate wells, animals, samples, runs or records.", "sequence of UniProt Q9NSY1 (whole entry, looked up)": "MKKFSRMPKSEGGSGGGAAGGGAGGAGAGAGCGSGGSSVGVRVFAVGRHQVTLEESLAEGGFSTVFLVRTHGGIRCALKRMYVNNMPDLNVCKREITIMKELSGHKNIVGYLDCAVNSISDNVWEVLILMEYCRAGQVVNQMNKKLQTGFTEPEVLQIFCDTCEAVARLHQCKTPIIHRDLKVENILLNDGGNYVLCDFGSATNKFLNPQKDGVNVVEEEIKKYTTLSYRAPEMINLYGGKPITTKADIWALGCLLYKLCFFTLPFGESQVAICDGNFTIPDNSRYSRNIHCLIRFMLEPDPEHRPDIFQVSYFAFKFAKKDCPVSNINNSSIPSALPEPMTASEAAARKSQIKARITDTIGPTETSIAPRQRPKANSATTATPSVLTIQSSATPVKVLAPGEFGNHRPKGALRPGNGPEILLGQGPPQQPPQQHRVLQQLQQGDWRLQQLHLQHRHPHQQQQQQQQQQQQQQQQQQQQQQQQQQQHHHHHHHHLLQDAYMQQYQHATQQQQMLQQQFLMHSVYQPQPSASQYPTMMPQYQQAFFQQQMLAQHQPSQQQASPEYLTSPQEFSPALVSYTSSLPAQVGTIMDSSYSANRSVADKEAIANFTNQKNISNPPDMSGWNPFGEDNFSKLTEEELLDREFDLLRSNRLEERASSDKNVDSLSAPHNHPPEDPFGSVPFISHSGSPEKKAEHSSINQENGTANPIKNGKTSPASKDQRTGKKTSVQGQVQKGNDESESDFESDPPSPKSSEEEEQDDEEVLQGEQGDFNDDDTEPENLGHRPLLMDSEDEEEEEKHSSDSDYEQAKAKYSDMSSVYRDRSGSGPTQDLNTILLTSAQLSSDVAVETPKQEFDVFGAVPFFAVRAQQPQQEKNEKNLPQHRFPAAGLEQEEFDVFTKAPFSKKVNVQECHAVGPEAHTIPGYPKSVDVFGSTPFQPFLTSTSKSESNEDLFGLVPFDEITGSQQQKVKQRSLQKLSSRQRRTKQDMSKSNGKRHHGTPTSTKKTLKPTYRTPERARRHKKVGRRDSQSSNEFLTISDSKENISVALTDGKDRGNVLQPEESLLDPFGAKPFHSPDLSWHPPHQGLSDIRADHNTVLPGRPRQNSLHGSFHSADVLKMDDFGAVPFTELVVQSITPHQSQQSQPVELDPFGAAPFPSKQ", "sequence of UniProt P42684 (whole entry, looked up)": "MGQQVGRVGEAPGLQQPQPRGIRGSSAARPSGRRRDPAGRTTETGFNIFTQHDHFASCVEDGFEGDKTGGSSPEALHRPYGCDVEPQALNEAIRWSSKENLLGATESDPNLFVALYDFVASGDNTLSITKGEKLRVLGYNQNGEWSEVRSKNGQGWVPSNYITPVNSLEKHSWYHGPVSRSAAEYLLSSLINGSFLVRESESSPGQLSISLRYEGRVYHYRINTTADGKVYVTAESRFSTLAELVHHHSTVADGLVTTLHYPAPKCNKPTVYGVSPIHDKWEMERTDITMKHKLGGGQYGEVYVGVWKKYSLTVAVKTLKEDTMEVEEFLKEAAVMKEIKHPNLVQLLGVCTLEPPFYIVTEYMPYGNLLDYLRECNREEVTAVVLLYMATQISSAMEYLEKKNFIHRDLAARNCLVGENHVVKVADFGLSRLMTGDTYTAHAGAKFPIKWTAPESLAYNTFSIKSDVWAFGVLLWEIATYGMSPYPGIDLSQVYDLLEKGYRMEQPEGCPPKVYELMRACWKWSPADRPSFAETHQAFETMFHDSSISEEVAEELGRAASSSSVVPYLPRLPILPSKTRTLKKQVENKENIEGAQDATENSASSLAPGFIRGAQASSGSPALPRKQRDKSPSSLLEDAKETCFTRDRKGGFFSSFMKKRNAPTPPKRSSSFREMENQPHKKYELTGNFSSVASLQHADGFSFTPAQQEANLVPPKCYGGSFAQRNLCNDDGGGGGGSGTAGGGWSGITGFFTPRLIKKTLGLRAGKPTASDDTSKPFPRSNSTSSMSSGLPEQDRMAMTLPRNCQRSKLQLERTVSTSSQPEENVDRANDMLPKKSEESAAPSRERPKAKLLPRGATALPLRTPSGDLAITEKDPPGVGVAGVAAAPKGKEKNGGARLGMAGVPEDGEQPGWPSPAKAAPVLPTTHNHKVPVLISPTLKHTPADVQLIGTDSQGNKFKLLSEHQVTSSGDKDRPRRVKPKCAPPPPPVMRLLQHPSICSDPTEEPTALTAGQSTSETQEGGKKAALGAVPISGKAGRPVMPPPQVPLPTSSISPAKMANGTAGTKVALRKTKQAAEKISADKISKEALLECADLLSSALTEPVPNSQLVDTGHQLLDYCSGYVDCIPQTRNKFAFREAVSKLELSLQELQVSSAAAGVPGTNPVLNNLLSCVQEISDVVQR", "sequence of UniProt P07333 (whole entry, looked up)": "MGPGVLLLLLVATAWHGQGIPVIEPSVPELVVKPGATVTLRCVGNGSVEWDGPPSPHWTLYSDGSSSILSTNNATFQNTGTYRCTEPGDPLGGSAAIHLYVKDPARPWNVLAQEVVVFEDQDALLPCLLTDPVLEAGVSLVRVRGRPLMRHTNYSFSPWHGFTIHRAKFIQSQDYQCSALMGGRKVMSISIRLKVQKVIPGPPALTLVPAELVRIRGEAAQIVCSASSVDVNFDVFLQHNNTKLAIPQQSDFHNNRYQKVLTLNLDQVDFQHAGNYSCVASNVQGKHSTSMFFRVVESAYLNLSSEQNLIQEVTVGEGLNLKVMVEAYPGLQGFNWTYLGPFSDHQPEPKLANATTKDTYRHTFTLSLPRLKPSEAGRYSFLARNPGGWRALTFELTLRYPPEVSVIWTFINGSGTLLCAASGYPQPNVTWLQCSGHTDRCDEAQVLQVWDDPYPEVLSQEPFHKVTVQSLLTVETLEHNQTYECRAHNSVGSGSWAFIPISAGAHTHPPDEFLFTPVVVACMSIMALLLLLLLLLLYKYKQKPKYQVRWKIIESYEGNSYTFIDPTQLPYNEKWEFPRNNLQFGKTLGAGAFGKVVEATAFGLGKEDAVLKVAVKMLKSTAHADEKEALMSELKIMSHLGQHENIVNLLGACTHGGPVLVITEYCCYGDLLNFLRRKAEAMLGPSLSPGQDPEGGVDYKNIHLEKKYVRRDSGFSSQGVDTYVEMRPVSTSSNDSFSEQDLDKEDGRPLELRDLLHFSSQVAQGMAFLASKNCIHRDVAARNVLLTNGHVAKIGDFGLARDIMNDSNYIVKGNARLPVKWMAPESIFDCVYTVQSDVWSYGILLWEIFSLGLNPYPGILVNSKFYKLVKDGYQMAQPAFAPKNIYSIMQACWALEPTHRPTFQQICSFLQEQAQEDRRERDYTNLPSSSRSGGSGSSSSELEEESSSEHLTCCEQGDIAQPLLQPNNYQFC", "sequence of UniProt Q96PY6 (whole entry, looked up)": "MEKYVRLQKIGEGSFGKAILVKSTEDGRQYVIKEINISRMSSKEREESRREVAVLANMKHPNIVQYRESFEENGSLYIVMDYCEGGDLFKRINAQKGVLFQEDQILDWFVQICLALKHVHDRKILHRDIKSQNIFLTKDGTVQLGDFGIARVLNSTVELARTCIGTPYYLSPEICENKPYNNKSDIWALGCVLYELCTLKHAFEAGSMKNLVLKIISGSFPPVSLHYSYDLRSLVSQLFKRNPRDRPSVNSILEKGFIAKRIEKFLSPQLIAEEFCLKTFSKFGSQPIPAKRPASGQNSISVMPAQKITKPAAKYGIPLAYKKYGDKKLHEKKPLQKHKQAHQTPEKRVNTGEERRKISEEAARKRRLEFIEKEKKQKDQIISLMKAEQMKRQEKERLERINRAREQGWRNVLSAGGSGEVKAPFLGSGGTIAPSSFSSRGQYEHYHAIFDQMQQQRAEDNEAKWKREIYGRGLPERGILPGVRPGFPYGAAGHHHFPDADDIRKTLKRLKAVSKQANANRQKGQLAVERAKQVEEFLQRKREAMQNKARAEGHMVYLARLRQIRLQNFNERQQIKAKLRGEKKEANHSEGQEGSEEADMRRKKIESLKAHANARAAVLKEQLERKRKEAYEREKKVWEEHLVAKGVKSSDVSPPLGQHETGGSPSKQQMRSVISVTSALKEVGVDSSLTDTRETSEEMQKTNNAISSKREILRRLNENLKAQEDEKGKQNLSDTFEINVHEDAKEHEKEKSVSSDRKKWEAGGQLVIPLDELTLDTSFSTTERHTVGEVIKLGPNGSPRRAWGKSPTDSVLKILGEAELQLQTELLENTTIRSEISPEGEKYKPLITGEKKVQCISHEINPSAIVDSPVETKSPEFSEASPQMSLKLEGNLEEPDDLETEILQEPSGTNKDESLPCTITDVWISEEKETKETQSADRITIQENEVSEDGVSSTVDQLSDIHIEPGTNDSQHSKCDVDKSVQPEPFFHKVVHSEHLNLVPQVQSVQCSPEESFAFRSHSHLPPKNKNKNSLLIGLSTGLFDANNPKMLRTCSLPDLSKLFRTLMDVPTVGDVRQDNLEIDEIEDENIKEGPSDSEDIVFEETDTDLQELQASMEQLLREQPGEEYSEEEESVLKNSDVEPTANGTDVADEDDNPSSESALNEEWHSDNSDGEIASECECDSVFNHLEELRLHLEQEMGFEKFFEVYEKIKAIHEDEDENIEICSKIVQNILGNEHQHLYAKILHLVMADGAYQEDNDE", "sequence of UniProt P27361 (whole entry, looked up)": "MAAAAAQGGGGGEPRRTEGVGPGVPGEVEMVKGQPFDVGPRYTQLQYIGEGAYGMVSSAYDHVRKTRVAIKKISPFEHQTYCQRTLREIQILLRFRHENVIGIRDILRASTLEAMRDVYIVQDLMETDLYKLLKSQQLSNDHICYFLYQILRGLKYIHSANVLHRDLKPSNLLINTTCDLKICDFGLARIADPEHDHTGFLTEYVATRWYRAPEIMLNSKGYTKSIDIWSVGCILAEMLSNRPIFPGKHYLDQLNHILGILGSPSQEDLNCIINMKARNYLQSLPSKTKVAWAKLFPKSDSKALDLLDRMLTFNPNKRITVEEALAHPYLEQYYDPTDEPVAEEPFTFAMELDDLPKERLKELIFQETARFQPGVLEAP"}
{"data": "Study 1", "SMILES": "COc1ccc2c(c1)/C(=C/c1cnc[nH]1)C(=O)N2", "observed": "enzyme activity", "mode": "inhibitor", "concentration": "0.5 µM", "reference": "control"}
{"target": "MAP2K2 (Homo sapiens, UniProt P36507)", "remaining activity [%]": 108}
{"target": "TBK1 (Homo sapiens, UniProt Q9UHD2)", "remaining activity [%]": 70.7}
{"target": "MAPK3 (Homo sapiens, UniProt P27361)", "remaining activity [%]": 87.2}
{"target": "NEK1 (Homo sapiens, UniProt Q96PY6)", "remaining activity [%]": 84.4}
{"target": "MAP3K5 (Homo sapiens, UniProt Q99683)", "remaining activity [%]": 103}
{"target": "ARAF (Homo sapiens, UniProt P10398)", "remaining activity [%]": 111}
{"target": "ABL2 (Homo sapiens, UniProt P42684)", "remaining activity [%]": 90.6}
{"target": "ULK2 (Homo sapiens, UniProt Q8IYT8)", "remaining activity [%]": 97.7}
{"target": "RPS6KA2 (Homo sapiens, UniProt Q15349)", "remaining activity [%]": 44.3}
{"target": "GRK7 (Homo sapiens, UniProt Q8WTQ7)", "remaining activity [%]": 99.7}
{"data": "Study 2", "Compound": "CC(C)S(=O)(=O)c1ccc2nccc(Nc3ccc4sc(C5CCCC5)nc4c3)c2c1.Cl"}
{"cell line": "L929", "test": "CCK-8", "conditions": "50 µM", "viability": "53.3% and 57.7% and 56.6% and 56.4%"}
{"cell line": "L929 RIPK3 knockout", "conditions": "50 µM, together with: zVAD", "viability": "59.9% and 62.7% and 63.4% and 64.1%"}
{"cell line": "L929", "test": "CCK-8", "conditions": "3.125 µM, together with: zVAD", "viability": "99.5% and 99.6% and 99.7% and 100% and 97.9%"}
{"cell line": "L929 RIPK3 knockout", "conditions": "0.781 µM", "viability": "108% and 102% and 95.9% and 101% and 96.2%"}
{"cell line": "L929 RIPK3 knockout", "conditions": "0.781 µM, together with: zVAD", "viability": "102% and 99.5% and 100% and 99%"}
{"cell line": "L929 RIPK3 knockout", "conditions": "6.25 µM, together with: zVAD", "viability": "103% and 104% and 102%"}
{"cell line": "L929 RIPK3 knockout", "conditions": "6.25 µM", "viability": "102% and 105% and 98.9% and 104%"}
{"cell line": "L929", "test": "CCK-8", "conditions": "50 µM, together with: zVAD", "viability": "54.3% and 52.4% and 54.8% and 55.9%"}
{"cell line": "L929", "test": "CCK-8", "conditions": "1.563 µM, together with: zVAD", "viability": "96% and 94.7% and 96.9% and 93.9% and 96.7%"}
{"data": "Study 3", "SMILES": "Cn1cncc1[C@@](O)(COc1ccc(C#N)cc1-c1ccc(OC(F)(F)F)cc1)c1ccc(C#N)cc1", "observed": "cell-free assay", "technique": "competition with immobilised ligand", "concentration": "1 µM"}
{"target": "FLT3 (Homo sapiens, UniProt P36888, D835H)", "remaining binding [%]": 67}
{"target": "Aurora kinase A (AURKA, Homo sapiens, UniProt O14965)", "remaining binding [%]": 76}
{"target": "Tyrosine-protein kinase JAK1, JH1 (JAK1, Homo sapiens, UniProt P23458)", "remaining binding [%]": 100}
{"target": "FLT3 (Homo sapiens, UniProt P36888, D835V)", "remaining binding [%]": 89}
{"target": "CDK16 (Homo sapiens, UniProt Q00536)", "remaining binding [%]": 85}
{"target": "BMP2K (Homo sapiens, UniProt Q9NSY1)", "remaining binding [%]": 79}
{"target": "MAP3K9 (Homo sapiens, UniProt P80192)", "remaining binding [%]": 98}
{"target": "PDGFRB (Homo sapiens, UniProt P09619)", "remaining binding [%]": 97}
{"target": "Macrophage colony-stimulating factor 1 receptor, autoinhibited (CSF1R, Homo sapiens, UniProt P07333)", "remaining binding [%]": 100}
{"target": "NIM1K (Homo sapiens, UniProt Q8IY84)", "remaining binding [%]": 97}
{"data": "Study 4", "organism": "Sarcocystis neurona", "observed": "parasite activity", "concentration": "10 µM", "time": "96 h"}
{"Structure (SMILES)": "C[C@]12C/C(=C/O)C(=O)C[C@@H]1CC[C@@H]1[C@@H]2CC[C@@]2(C)[C@H]1CC[C@]2(C)O", "activity class": "inactive"}
{"Structure (SMILES)": "CN1C(=O)CN=C(c2ccccc2)c2cc([N+](=O)[O-])ccc21", "activity class": "inactive"}
{"Structure (SMILES)": "COc1ccc(C(CN(C)C)C2(O)CCCCC2)cc1 (stereo not shown)", "activity class": "inactive"}
{"Structure (SMILES)": "NC(=O)C[S+]([O-])C(c1ccccc1)c1ccccc1 (stereo not shown)", "activity class": "inactive"}
{"Structure (SMILES)": "CNCC(O)c1ccc(O)cc1 (stereo not shown)", "activity class": "inactive"}
{"Structure (SMILES)": "C[C@]12CC[C@H]3[C@@H](CCC4=CC(=O)CC[C@@]43C)[C@@H]1CC[C@@H]2O", "activity class": "inactive"}
{"Structure (SMILES)": "CNC1CC(c2ccc(Cl)c(Cl)c2)c2ccccc21 (stereo not shown)", "activity class": "inactive"}
{"Structure (SMILES)": "Cc1nnc2n1-c1ccc(Cl)cc1C(c1ccccc1)=NC2", "activity class": "inactive"}
{"note": "A few entries again (study 4):"}
{"Structure (SMILES)": "CNC1CC(c2ccc(Cl)c(Cl)c2)c2ccccc21 (stereo not shown)", "activity class": "inactive"}
{"Structure (SMILES)": "NC(=O)C[S+]([O-])C(c1ccccc1)c1ccccc1 (stereo not shown)", "activity class": "inactive"}
{"Structure (SMILES)": "Cc1nnc2n1-c1ccc(Cl)cc1C(c1ccccc1)=NC2", "activity class": "inactive"}
{"Structure (SMILES)": "CNCC(O)c1ccc(O)cc1 (stereo not shown)", "activity class": "inactive"}
{"Structure (SMILES)": "C[C@]12CC[C@H]3[C@@H](CCC4=CC(=O)CC[C@@]43C)[C@@H]1CC[C@@H]2O", "activity class": "inactive"}
{"Structure (SMILES)": "COc1ccc(C(CN(C)C)C2(O)CCCCC2)cc1 (stereo not shown)", "activity class": "inactive"}
